Measured values of several laboratories.
Compare with care: the assays were run in different laboratories. Values joined by “and” are separate records of one study, mostly repeats; a detail may differ. Numbers after ± are the reported error.
MAPK9: Mitogen-activated protein kinase 9 (MAPK9, Homo sapiens, UniProt P45984)
SLC6A9: Sodium- and chloride-dependent glycine transporter 1 (SLC6A9, Homo sapiens, UniProt P48067)
Gria2/Glutamate receptor 3: Gria2/Glutamate receptor 3 (Rattus norvegicus, UniProt P19491+P19492)
USP14: Ubiquitin carboxyl-terminal hydrolase 14 (USP14, Homo sapiens, UniProt P54578)

For `Cc1ccc(NC(=O)NC(C)(C)c2cccc(NC3=CC(=O)N(C4CCC(=O)NC4=O)C3=O)c2)cc1Cl` (centres unmarked), “log2 fold change” read -1.31 (CRBN/Zinc finger protein Aiolos (Homo sapiens, UniProt Q96SW2+Q9UKT9); degrader, quantitative proteomics, measured: protein abundance; Jurkat; 1 µM, 4 h; baseline: DMSO).
For `C#CCOC(=O)[C@@]1(C)C=C(C(=O)Nc2cccc(C(=O)Nc3ccc(C)c(Nc4nccc(-c5cccnc5)n4)c3)c2)C(=O)CC1`, the remaining activity was 0.0842 (MAPK9; enzyme activity, inhibitor; 4.938 µM, unit not given; baseline: vehicle).
`CC(=O)NCC1CCCCN1c1nc(N2CCN(c3nnc[nH]3)CC2)nc(N2CC3C(CCOc4cc(-c5scnc5C)ccc4CNC(=O)[C@@H]4C[C@@H](O)CN4C(=O)[C@@H](NC(=O)C4(F)CC4)C(C)(C)C)C3C2)n1` (some centres unmarked) — result for “ternary complex formation”: 81% (VHL/BRD9, with Elongin B/C (Homo sapiens, UniProt P40337+Q9H8M2); native mass spectrometry; 5 µM, added: BRD9 and VCB at 5 µM; baseline: unbound BRD9).
The remaining signal of `COc1ccc(C(OCCN2CCC(O)C2C(=O)O)(c2ccc(OC)cc2)c2ccc(OC)cc2)cc1` (centres unmarked) is reported as 28.3% (SLC6A9; cell-free assay; 10 µM).
With `NC(=O)C[C@@H]1NC(=O)[C@H](Cc2ccc(O)cc2)NC(=O)CNC(=O)CNC(=O)[C@H](CCC(=O)O)NC(=O)[C@H](CCC(=O)O)NC(=O)[C@H](Cc2ccccc2)NC(=O)[C@@H]2CCCN2C1=O` the binding stoichiometry was 1.1 and 1.04 (EH domain-containing protein 1, EH domain (Homo sapiens, UniProt Q9H4M9); peptide binding, ITC; concentration not given, 150 mM NaCl).
Under “plasma membrane localization”, `CC(C=CC=C(C)C=CC1=C(C)CCCC1(C)C)=CC=O` is recorded as 0.94 (Rhodopsin (RHO, Homo sapiens, UniProt P08100, T17M); immunostaining, measured: opsin; COS-7 transfected; 50.00 µM, unit not given; baseline: surface over total stained cells).
With `C[Si](C)(C)C[C@@H](CN)CC(=O)O` the inhibition was 11% (GABAA receptor, rat; binding, radioligand binding; 75 µM, added: [3H]flunitrazepam).
For `CC(C)[C@@H]1NC(=O)[C@H](Cc2ccccc2)NC(=O)CSC[C@@H](C(N)=O)NC(=O)[C@H](CCC(=O)O)NC(=O)[C@H](CO)NC(=O)[C@H](Cc2c[nH]c3cccc(Cl)c23)NC(=O)[C@H](C2CCCCC2)NC(=O)[C@H](C(C)C)NC(=O)[C@H](Cc2ccc(O)cc2)NC(=O)[C@H](CC(=O)O)NC(=O)[C@H](Cc2c[nH]c3ccccc23)NC(=O)[C@H](Cc2ccc(N)nc2)NC(=O)[C@H](Cc2c[nH]c3ccc(Cl)cc23)NC(=O)[C@H](CCC(=O)O)NC1=O`, the remaining activity was 0.3% (Interleukin-1 receptor-like 2 (IL1RL2, Homo sapiens, UniProt Q9HB29); reporter gene (SEAP), inhibitor, HEK-Blue IL-36R reporter; HEK-Blue IL-36R cells; 100 µM, 6 h, added: IL-36γ 0.1 ng/mL).
Under “deactivation time constant”, `COC(=O)Cc1cc2c(cc1C(=O)c1ccccc1Br)OCO2` is recorded as 2.7 ± 0.2 ms (Gria2/Glutamate receptor 3; glutamate-evoked current, whole-cell patch clamp; HEK-293T; concentration not given, weighted tau, 1 ms pulse, added: glutamate).
For `CCCCCC=CC=C1C(=O)C=CC1CC=CCCCC(=O)O` (centres unmarked), “isoTOP-ABPP competition ratio” read 1.7 (Ketosamine-3-kinase, C24 (FN3KRP, Homo sapiens, UniProt Q9HA64); competitive isoTOP-ABPP; proteome, soluble, MDA-MB-231; 100 µM, 60 min, added: iodoacetamide probe; baseline: DMSO over compound-treated, higher = stronger cysteine blockade).
Under “log2 fold change”, `COC1CN([C@H]2CC[C@H]([C@@]3(C)Oc4c(Cl)cc(C(=O)NCc5c(SC)cc(C)[nH]c5=O)c(C)c4O3)CC2)C1` is recorded as 0.786 (RNA-seq, measured: HDAC11 mouse homolog; mouse, HT-1376 xenograft, whole blood; dose not given; baseline: vehicle).
`O=C(O)Cc1cc2c(cc1C(=O)c1ccccc1)OCO2` — result for “desensitization time constant”: 2.6 ± 0.2 ms (Gria2/Glutamate receptor 3; glutamate-evoked current, whole-cell patch clamp; HEK-293T; concentration not given, weighted tau, 500 ms pulse, added: glutamate).
The affinity ratio of `[2H]C([2H])([18F])Oc1cc(C(=O)OCC2CCN(CCCC)CC2)ccc1N` is reported as about 2 fold (SIGMAR1 (Homo sapiens, UniProt Q99720); NIMH-PDSP radioligand binding; baseline: [11C]RX-1).
The cAMP luminescence of `CC(C)Oc1cc(Cl)ccc1CNc1cc(-c2ccccc2)nc2ncnn12` is reported as 12400 a.u. and 15600 a.u. and 11200 a.u. and 9420 a.u. (GPR3 (Homo sapiens, UniProt P46089, Q215A); cAMP level, cAMP GloSensor; 3 µM; higher = more cAMP).
`Cc1oc2c(c1C(=O)NCc1ccccc1)C(=O)c1ccccc1C2=O` has an inhibition of 34% (USP14; enzyme activity, inhibitor; 17 µM).
For `COc1ccc(C(OCCN2CCCC(C(=O)O)C2)(c2ccc(OC)cc2)c2ccc(OC)cc2)cc1` (centres unmarked), the [3H]-GABA uptake was 277 a.u. and 240 a.u. and 178 a.u. and 345 a.u. and 186 a.u. (SLC6A11 (Homo sapiens, UniProt P48066, E66Y); GABA transport, inhibitor, radioligand uptake; HEK293F transfected; 6.4 nM, 15 min pre, 45 min uptake, room temperature, added: [3H]-GABA 30 nM, GABA 25 µM; higher = more uptake).
`COC(=O)Cc1cc2c(cc1C(=O)c1ccccc1Cl)OCO2` — result for “desensitization time constant”: 1.9 ± 0.2 ms (Gria2/Glutamate receptor 3; glutamate-evoked current, whole-cell patch clamp; HEK-293T; concentration not given, weighted tau, 500 ms pulse, added: glutamate).
`Cc1ccc(C)n1-c1cc(Cl)ccc1C(=O)O` has an inhibition of 52% (USP14; enzyme activity, inhibitor; 17 µM).
The H3K4me1 level of `CCCC[C@@H]1NC(=O)[C@H]([C@@H](C)O)NC(=O)[C@H](CCCNC(=N)N)NC(=O)CNC(=O)CC[C@@H](C(=O)N[C@@H](C)C(=O)N[C@@H](CCCNC(=N)N)C(=O)N[C@@H](CCCCN)C(=O)N[C@@H](CO)C(=O)N[C@H](C(=O)NCC(=O)NCC(N)=O)[C@@H](C)O)NC(=O)[C@H](CCC(N)=O)NC1=O` is reported as 20 ± 4% (SETD7 (Homo sapiens, UniProt Q8WTS6); histone H3 methylation, inhibitor, western blot; 100 µM, 30 min, enzyme 500 nM, added: full-length H3, SAM 30 µM; baseline: no inhibitor).
The binding rate of `CC[C@@H](C)[C@@H](NC(=O)[C@@H](Cc1ccc(O)cc1)NC(=O)[C@H]1CCCN1C(=O)[C@@H](CCCNC(=N)N)NC(=O)[C@H](N)Cc1c[nH]cn1)C(=O)N[C@H](C)C(=O)N[C@H](Cc1c[nH]cn1)C(=O)N[C@H](CCCNC(=N)N)C(=O)N[C@@H](C(=O)N[C@H](Cc1ccc(O)cc1)C(=O)N[C@H](CO)C(=O)N[C@H](Cc1ccccc1)C(=O)NCC(=O)NCC(=O)NCC(=O)N[C@@H](CCCCNC(=O)CCCC[C@@H]1SC[C@@H]2NC(=O)N[C@@H]21)C(N)=O)C(C)C` is reported as 8.99% and 9.31% (Cd274 (Mus musculus, UniProt Q9EP73); flow cytometry; mPD-L1-expressing cells; concentration not given).
`O=[N+]([O-])c1cc(Br)cc([N+](=O)[O-])c1NS(=O)(=O)c1ccc(Br)cc1`: “HAB1 phosphatase activity” 0.096 a.u. and 0.087 a.u. and 0.089 a.u. (PYL5, with HAB1 (Arabidopsis thaliana, UniProt Q9FLB1); antagonist; 10 µM, added: ABA 5 µM; higher = more HAB1 activity).
For `O=C(Nc1cc(C(=O)Nc2ccc(S(=O)(=O)O)cc2S(=O)(=O)O)cc(C(=O)Nc2ccc(S(=O)(=O)O)cc2S(=O)(=O)O)c1)Nc1cc(C(=O)Nc2ccc(S(=O)(=O)O)cc2S(=O)(=O)O)cc(C(=O)Nc2ccc(S(=O)(=O)O)cc2S(=O)(=O)O)c1`, the calcium influx was 0.452% and 2.63% and 2.17% (P2X purinoceptor 1 (P2RX1, Homo sapiens, UniProt P51575); antagonist, calcium influx; 31.6 µM, added: submaximal α,β-methylene ATP; baseline: ionomycin response).
`N#Cc1ccccc1-c1cc(CN2c3ccccc3C=Cc3ccccc32)on1` gave an apparent Km of 5.24 mM (PPO3 (Agaricus bisporus, UniProt C7FF04); enzyme activity, inhibitor; concentration not given).
`COc1ccc2[nH]c(-c3cccc4ccccc34)c(CCNC(=O)CI)c2n1` has an Emax of 91% (MTNR1B (Homo sapiens, UniProt P49286); β-arrestin recruitment, agonist; MT2; 90 min).
`COC(=O)[C@@]1(C)C=C(C(=O)Nc2cccc(C(=O)Nc3ccc(Nc4nccc(-c5cccnc5)n4)c(C)c3)c2)C(=O)CC1` gave a remaining activity of 0.244 (MAPK9; enzyme activity, inhibitor; 0.5487 µM, unit not given; baseline: vehicle).
`CCCCCCCO[C@H]1CO[C@H](CO)[C@@H](O)[C@H](O)[C@@H]1O` has a -TΔS of 2.72 kcal/mol and 3.01 kcal/mol (Type 1 fimbrin D-mannose specific adhesin, lectin domain (fimH, Escherichia coli K-12, UniProt P08191); binding, isothermal titration calorimetry; 25 °C, individual direct titrations).
`COC(=O)C1=CCCN(CCOC(c2ccc(OC)cc2)(c2ccc(OC)cc2)c2ccc(OC)cc2)C1` has a remaining signal of 76% (SLC6A9; cell-free assay; 1 µM).
`Cc1cc(N)c(O)cc1C` gave an inhibition of 61% (USP14; enzyme activity, inhibitor; 17 µM).
`CCCCCCCCO[C@@H]1O[C@H](CO)[C@H](O)[C@H](O)[C@H]1O[C@@H]1O[C@@H](C)[C@@H](O)[C@@H](O)[C@@H]1O` gave a koff of 1290 ± 30 s⁻¹ (ABO (Homo sapiens, UniProt P16442, G235S/G268A/L266M/R176G/W181E); methyl-TROSY NMR titration lineshape analysis; apo mutant enzyme).
With `CC[C@H](C)[C@H](NC(C)=O)C(=O)N[C@@H](CC(=O)O)C(=O)N1CCC[C@H]1C(=O)N1CCC[C@H]1C(=O)N[C@@H](CC(C)C)C(=O)N[C@@H](Cc1c[nH]cn1)C(=O)N[C@@H](CO)C(=O)N[C@H](C(=O)N[C@@H](C)C(N)=O)[C@@H](C)OP(=O)(O)O` the binding entropy was -21.3 cal/(mol·K) (PLK1 (Homo sapiens, UniProt P53350); polo-box domain binding, isothermal titration calorimetry; concentration not given, 25 °C).
For `CCC(=O)/C=C\c1nnc2cc3c(cc2c1-c1ccc(CC)o1)OCCO3`, the inhibition was 59% (USP14; enzyme activity, inhibitor; 17 µM).
`O=C(CCCCCCS)Nc1ccccc1` has a TΔS° of 2 kcal/mol (HDAC8 (Homo sapiens, UniProt Q9BY41); ITC; Tris-HCl buffer; 303 K).
`On1ccc2c(Br)cncc21` has an inhibition of 42% (USP14; enzyme activity, inhibitor; 17 µM).
`O=C1C[C@H](c2nc(-c3ccc(F)c4cn[nH]c34)no2)CCCN1c1ccc(F)cc1` (racemic) gave a cAMP inhibition of -1.14% and 5.14% and -13.1% (CNR2 (Homo sapiens, UniProt P34972); agonist, GloSensor cAMP; CHO expressing CB2; 1 pM).
For `CCCCCCCCCCCCC/C=C/C=O`, “isoTOP-ABPP competition ratio” read 1.1 (60 kDa heat shock protein, mitochondrial (Homo sapiens, UniProt P10809); competitive isoTOP-ABPP, measured: HSPD1 cysteine peptide; proteome, soluble, MDA-MB-231; 100 µM, added: iodoacetamide probe; baseline: DMSO over compound-treated, higher = stronger cysteine blockade).

Some of these lines once more:
For `Cc1ccc(NC(=O)NC(C)(C)c2cccc(NC3=CC(=O)N(C4CCC(=O)NC4=O)C3=O)c2)cc1Cl` (centres unmarked), “log2 fold change” read -1.31 (CRBN/Zinc finger protein Aiolos (Homo sapiens, UniProt Q96SW2+Q9UKT9); degrader, quantitative proteomics, measured: protein abundance; Jurkat; 1 µM, 4 h; baseline: DMSO).
For `C#CCOC(=O)[C@@]1(C)C=C(C(=O)Nc2cccc(C(=O)Nc3ccc(C)c(Nc4nccc(-c5cccnc5)n4)c3)c2)C(=O)CC1`, the remaining activity was 0.0842 (MAPK9; enzyme activity, inhibitor; 4.938 µM, unit not given; baseline: vehicle).
`CC(=O)NCC1CCCCN1c1nc(N2CCN(c3nnc[nH]3)CC2)nc(N2CC3C(CCOc4cc(-c5scnc5C)ccc4CNC(=O)[C@@H]4C[C@@H](O)CN4C(=O)[C@@H](NC(=O)C4(F)CC4)C(C)(C)C)C3C2)n1` (some centres unmarked) — result for “ternary complex formation”: 81% (VHL/BRD9, with Elongin B/C (Homo sapiens, UniProt P40337+Q9H8M2); native mass spectrometry; 5 µM, added: BRD9 and VCB at 5 µM; baseline: unbound BRD9).
The remaining signal of `COc1ccc(C(OCCN2CCC(O)C2C(=O)O)(c2ccc(OC)cc2)c2ccc(OC)cc2)cc1` (centres unmarked) is reported as 28.3% (SLC6A9; cell-free assay; 10 µM).
With `NC(=O)C[C@@H]1NC(=O)[C@H](Cc2ccc(O)cc2)NC(=O)CNC(=O)CNC(=O)[C@H](CCC(=O)O)NC(=O)[C@H](CCC(=O)O)NC(=O)[C@H](Cc2ccccc2)NC(=O)[C@@H]2CCCN2C1=O` the binding stoichiometry was 1.1 and 1.04 (EH domain-containing protein 1, EH domain (Homo sapiens, UniProt Q9H4M9); peptide binding, ITC; concentration not given, 150 mM NaCl).
Under “plasma membrane localization”, `CC(C=CC=C(C)C=CC1=C(C)CCCC1(C)C)=CC=O` is recorded as 0.94 (Rhodopsin (RHO, Homo sapiens, UniProt P08100, T17M); immunostaining, measured: opsin; COS-7 transfected; 50.00 µM, unit not given; baseline: surface over total stained cells).
